Assay results of several laboratories.
A part holds a random share of what one study measured. Changes are numbered by the printed parent chain.

Block 1
Target: Interferon regulatory factor 7, full length, phosphomimetic (IRF7, Homo sapiens, UniProt Q92985, residues 1-503, S101K/S471D/S472D/S475D/S476D/S477D/S483D/S484D/S487D)
Chain of UniProt Q92985 (whole entry, unmodified, looked up): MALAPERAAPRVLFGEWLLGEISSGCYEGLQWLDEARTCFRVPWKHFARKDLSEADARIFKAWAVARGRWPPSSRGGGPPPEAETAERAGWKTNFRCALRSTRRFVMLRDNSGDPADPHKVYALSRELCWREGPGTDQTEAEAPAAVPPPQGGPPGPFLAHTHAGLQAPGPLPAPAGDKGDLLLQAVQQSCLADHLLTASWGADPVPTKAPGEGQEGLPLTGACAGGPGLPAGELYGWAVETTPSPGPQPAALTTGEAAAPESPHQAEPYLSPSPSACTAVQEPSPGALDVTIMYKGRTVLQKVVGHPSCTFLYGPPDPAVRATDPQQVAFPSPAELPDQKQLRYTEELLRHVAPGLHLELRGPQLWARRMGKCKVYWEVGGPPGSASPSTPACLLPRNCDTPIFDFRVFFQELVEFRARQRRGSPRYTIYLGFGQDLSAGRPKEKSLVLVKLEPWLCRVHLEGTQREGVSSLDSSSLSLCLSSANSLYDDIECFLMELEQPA
Method: protein-binding microarray
Molecule type: double-stranded DNA, one strand shown
Matrix: in vitro
Concentration: 250 nM
Setting: 60-bp whole probe
Together with: salmon DNA 0.4 mg/ml
Relative to: random background probes
Direction: higher = stronger binding
Constant ends, left off below: GCCTAGCAC … GTCTTGATTCGCTTGACGCTGCTG
Strand | log fluorescence
TTAGGTTTCGGGTATCGATTAGTGCTA | 7.9 z-score
TTAGGTTTCCTACTGCTTTGGTGCTAG | 1.13 z-score
GACGGTATGGGGACTGGGGACGTGCTA | -0.373 z-score
GGCGATTTCGGGTATCGAGACGTGCTA | 0.474 z-score
GACGATTCCAGTTTCGTGACGTGCTAG | 2.69 z-score
TTAGGTATAGGTCTCGGTTAGTGCTAG | 1.11 z-score
TCAACTCTTCTTTTGCTACTGTGCTAG | 0.275 z-score
TCAGGTTTCGACACTGGGTTAGTGCTA | 3.75 z-score

Block 2
Target: ABI1, truncated, D143A, DHFR fusion (Arabidopsis thaliana)
Method: DHFR PCA, deep sequencing
Matrix: yeast
Setting: methotrexate growth selection, single substitutions
Together with: (+)-ABA 2500 µM
Relative to: wild-type fitted maximum
Direction: higher = stronger binding
Starting sequence: PYL1, truncated, DHFR fusion (Arabidopsis thaliana); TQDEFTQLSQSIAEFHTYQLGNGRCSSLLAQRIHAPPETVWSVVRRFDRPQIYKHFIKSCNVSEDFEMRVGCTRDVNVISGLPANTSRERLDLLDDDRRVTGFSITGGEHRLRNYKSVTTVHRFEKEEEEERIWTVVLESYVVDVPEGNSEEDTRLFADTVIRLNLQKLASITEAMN
Change | relative binding score [%]
A30H | 99.8
N85H | 98.7
V136H | 81.1
Q7R | 106
T106W | 106
R155L | 95.8
I52A | 97.8
T39N | 97.5

Block 3
Target: Fragile X messenger ribonucleoprotein 1, C-terminal low-complexity region (Fmr1, Mus musculus, UniProt P35922)
Method: RNA Bind-n-Seq
Molecule type: RNA
Matrix: in vitro
Concentration: 200 nM
Setting: whole 134-nt RNA, ends assumed
Together with: 150 mM LiCl
Relative to: input library
Direction: higher = stronger binding
Each molecule: 7-deaza-guanosine replaces G
Constant ends, left off below: GGGAGUUCUACAGUCCGACGAUC … UGGAAUUCUCGGGUGUCAAGG
Strand | log2 enrichment
GGUAAACGCCCUGCAGAAGAUAUGGAAGAGGAACAAGCAUUUAAAAGAUCUAGAAACACUGAUGAGAUGGUUGAAUUACGCAUUCUGCUU | 0.0291
AAGUCCUGUGCUACACAUCGUAUGUACCGAAUCGGAAAAAAAGGAAAAAGGAAAGGAAAGUAUUAUGUUACGCCGUUCGGAUCUGCACUU | -1.83
CCUCAAGUCCUGUGCUACACAUCGUAUGUACCGAAUCGGUGGAAAAAGGAGGAAAGUAUUAUGUUACGCCGUUCGGAUCUGCACUUCCAG | 0.216
CCUGUGCUACACAUCGUAUGUACCGAAUCAAAUUUUUUUAAACCCCCAAAUUUUUUUAAAAAAGUAUUAUGUUACGCCGUUCGGAUCUGC | -0.361
AGUCCUGUGCUACACAUCGUAUGUACCGAAUCGGUUUUUUUGGUUUUUGGUUUUUGGAAAGUAUUAUGUUACGCCGUUCGGAUCUGCACU | -2.46
UCAAGUCCUGUGCUACACAUCGUAUGUACCGAAUCGGGAAAGGGAAAGGGAAAGGAAAGUAUUAUGUUACGCCGUUCGGAUCUGCACUUC | -1.33
CUCAAGUCCUGUGCUACACAUCGUAUGUACCGAAUCGGGAGGGUGGGAAAGGGAAAGUAUUAUGUUACGCCGUUCGGAUCUGCACUUCCA | -0.669
AAGUCCUGUGCUACACAUCGUAUGUACCGAAUCGGUUUUGGGGUUUUGGUUUUGGGGAAAGUAUUAUGUUACGCCGUUCGGAUCUGCACU | -1.04

Further values, each from its own experiment
Starting sequence: viral docking peptide; TSVRRALFTGGSD
Change | target | test | system | setting | how to read | endpoint | value
S2Q | CCNA1, cyclin fold, Cln2 fusion (human) | yeast growth competition, sequencing | yeast | strong parent motif | relative to: not given, higher = stronger binding | normalised enrichment score | 1.03
